{"data": "Measurements collected from several papers", "note": "Numbered parts are unrelated; each lists some results of a single study. Positions count from the first letter of the parent shown."}
{"data": "Study 1", "target": "RING finger protein unkempt homolog, zinc fingers 1-6, SBP tag (UNK, Homo sapiens, UniProt Q9C0B0, residues 30-357)", "technique": "RNA Bind-n-Seq", "form": "RNA", "sample": "in vitro", "tested at": "100 nM", "setting": "RNA with constant flanks, vertebrate orthologous sites, ends assumed", "relative to": "input RNA pool", "direction": "higher = stronger binding", "shared flanks, not repeated": "GGGAGUUCUACAGUCCGACGAUC … CAACAGAGGAUUGAGCAUCA", "sequence of UniProt Q9C0B0 (30-357, looked up)": "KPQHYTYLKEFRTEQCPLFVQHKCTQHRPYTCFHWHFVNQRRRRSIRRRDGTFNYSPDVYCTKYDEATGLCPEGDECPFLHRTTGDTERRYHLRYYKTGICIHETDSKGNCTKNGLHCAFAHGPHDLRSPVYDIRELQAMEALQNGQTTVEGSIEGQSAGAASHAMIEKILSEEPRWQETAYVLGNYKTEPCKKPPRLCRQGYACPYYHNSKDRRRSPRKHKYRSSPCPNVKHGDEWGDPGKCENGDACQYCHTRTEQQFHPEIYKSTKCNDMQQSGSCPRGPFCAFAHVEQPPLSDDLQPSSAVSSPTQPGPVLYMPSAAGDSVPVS"}
{"Strand": "CAACUUGUUCUAGAUGGUGAUCCUUCAAAGUUGGGUCAGGCAUUAAUUAGUGCUAGGUACUCACAAUGUUCAUUUCUCUGUUGCCGUUGAUCAGAGAGACAGACAUAAAAACAUAAGAAA", "bound/input enrichment [ratio]": 0.401}
{"Strand": "CAGUCCUCUACUUAAACUGGUAUUUUCAAACAAUAGGAAGCUAUUUUUUUUUUUUUACAGUUUAGUAUCUUGUUUCUACAUGGAAGACUAAACAUGCUUAUAGCUAAAUGUGGUCUUUGC", "bound/input enrichment [ratio]": 0.57}
{"Strand": "ACCCCGAUUUUAGAUGUGAUAUAUAGGCUUUCAUUCCAGUUUGUUUUGUCUUUUCUUGUUUAGAUAUCAACCUUUUAAAUUCUUGCAUUUUAGUAAGAAAGCUAUCUUUUUAUGGAUGUU", "bound/input enrichment [ratio]": 0.994}
{"Strand": "CUCUUUUCCAGGUUGGAUAUACUGGAAAAGUCAUAGGAAUUGAUCACAUUAAAGAGCUAGUAGAUGACUCAAUAAAUAAUGUCAGGAAGGACGAUCCAACACUUCUGUCUUCAGGGAGAG", "bound/input enrichment [ratio]": 0.807}
{"Strand": "CGGCUCCAUGGUGGAGGGCUCCGAGCUCAAGAAGGUGCGCUCCAACUCCAGGAUUUACCACCGGUAUUUCCUCCUGGACGCCGACAUGCAGAGCCUGAGGUGGGAGCCGUCCAAGAAGGA", "bound/input enrichment [ratio]": 0.207}
{"Strand": "AAAUUUAUUUCAUGCCCUGGACUCCUUAUCGUACUGAUACUUUAAUAGAAUAUGCUUCUUUGGAAGAUUUCCAAAACAGUCGCCAAACAACUACAUAUAAACUGCCAAAUCGAGUUGAUG", "bound/input enrichment [ratio]": 0.853}
{"Strand": "AAGGGCUGUGUAGAGUAGCUGUGUUCUUCUUAGGAUGUUGCUUCUUGAUUUUCUUUUUUUAAGGGGUGGGUCAGGGUUGUGACACACCAGCCCAGGCAAGAGCUGCUGCGGGUCACCUCA", "bound/input enrichment [ratio]": 0.551}
{"Strand": "UUGUGUUUGUUUUGCACAUGGCAGUGUAUAUUGAGGAUCUUCUGAGGAGGAAGGGGUGCCUAGCGGUGGUGCCUGGGCUCCCGGCCUCUAGCGCCCCACCCGCCUCAGCACCCUGCCUGG", "bound/input enrichment [ratio]": 0.371}
{"data": "Study 2", "target": "RNA binding protein fox-1 homolog 2, RRM domain, GST-SBP tag (RBFOX2, Homo sapiens, UniProt O43251-10, residues 100-194)", "technique": "RNA Bind-n-Seq", "form": "RNA", "sample": "in vitro", "tested at": "365 nM", "setting": "natural RNA segment, single round, ends assumed", "relative to": "no-protein control", "direction": "higher = stronger binding", "shared flanks, not repeated": "GGGAGUUCUACAGUCCGACGAUC … UGGAAUUCUCGGGUGCCAA", "Construct (chain)": "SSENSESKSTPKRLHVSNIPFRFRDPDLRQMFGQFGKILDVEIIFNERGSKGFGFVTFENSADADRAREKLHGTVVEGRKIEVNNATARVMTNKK"}
{"Strand": "UUUUACUUUUUAUUACAUAAAAAUAUUAAAAAAUAAAUAAAAAAAAUAAAAUUUUAAACUAACUUAACCUGCCUGGAGUUUCCUCCUUGGAGACUAGAGUGGGGUGACAG", "RBNS enrichment (R)": 1.05}
{"Strand": "AGACAGAGAUAUGGACUAGGUUACAGGAAACGUGCACCGUUGGCUCCACAGACAAGAAGUGCAUUGCCAGAAGAGCAUCACUGAACGGAGCGGAGGGAGGACCAGUUGCA", "RBNS enrichment (R)": 2.79}
{"Strand": "AUAGUAUGCAUUGUUAUACAUACUGUGUACCUAAUUAUGUAUAGCAGUGUAGUCUCAAUUAUAUCUGAAAGUAAUUGUGACUAACAAGUAUGCUUUGCCUUAUUUCCACA", "RBNS enrichment (R)": 0.306}
{"Strand": "AACCAAUUCCUCAUCCUCAGAUGCUCAAAGUUGUUUUUUUUGUUUGUUUGUUUAUUAGAUGAAUUAUCCUAUUUCAGUACUUCAGCAAGAGAGAACCUAACUGUAUCUUG", "RBNS enrichment (R)": 0.427}
{"Strand": "AAUUCCAACCUCUAAGUCGGGGAAAGGUGACAGGUUUCCUGGUGCUGGUGUGCACAGGGGCAGGCAGGUCAGCUGGCCUGGGGAAGAGCAUUGUGGCUCCUAGUGCAGCC", "RBNS enrichment (R)": 0.588}
{"Strand": "UAGAGAAAUAGCCUGUGGGACUUGUUAAAGAAGAUAGAUAGUAAGAAAAGCAGCCAUUGCGUGCCCUCUGUGAAGAGUUCUAACUUGGAGAACAAAUCUCUCAGACAAAU", "RBNS enrichment (R)": 0.819}
{"Strand": "ACCACCCUGGGGGAGGGCCCUUCCAAAGGGAGGCUUGCUAGUUUCAGCGUCUAGCAGUUGGGUCCUCACUUUUACUCCAAUUGUGAAAAUAGCCCACGUACCCUCGCAGU", "RBNS enrichment (R)": 0.633}
{"Strand": "UAGGAUACUUUUAUAUGAUGGGUGCUUUGAGUGUGAAUGCAGCAGGCUCUAUCUCAGAGGUGCUGCUCUUGCAGGUGACCUGGUUGCAUAGCUAGGAUUAGUAAUUUGUA", "RBNS enrichment (R)": 1.05}
{"Strand": "CUAGAACCAGUAACACUGAGACAUUGUUACCAGUCCUGAGGCUGAGAUUCAAUAAAAACUUACAGCUAUGAUAGUGUUGUGUGACUUUAUAGAAAUCUGAUUUUAUAACU", "RBNS enrichment (R)": 0.361}
{"Strand": "CCAUCCCUUUCCCUGCUUCAGCGUCAGGCUGGGCCACCCACUUCAGCAGGCCGUGCGUGCGGACAGUCCUCAUUGCUGUGAGCGCAGUUACCACCUGGUGCCUCACUGUC", "RBNS enrichment (R)": 0.472}
{"Strand": "CCAACCAUGGAGGAGACGCAAGGUGAAGACAUCGGGAAACAUCACACCGCACACGCUGUCGUCUUUUUUUCACAAGCUCAAUUGUUACUUUUCUCUGCUUCCUCAGCCCA", "RBNS enrichment (R)": 0.321}
{"Strand": "GCAGCAUGUGCUCACGGCAUCAUGUGGCAGUGGUGUGGGGUCUCUGCUCAGUGUGUUGAUACAGAAAAGCUGUUUUUCCUUGUUUGCAGAAGUUGACCAGACAAAGCAAA", "RBNS enrichment (R)": 0.771}
{"data": "Study 3", "target": "Histone acetyltransferase KAT6A, both winged helices, GST fusion (KAT6A, Homo sapiens, UniProt Q92794, residues 1-181)", "technique": "protein binding microarray", "form": "double-stranded DNA, one strand shown", "sample": "in vitro", "tested at": "not given", "setting": "8-mer, flanks averaged, mean of 2 arrays, mostly near background", "relative to": "not given", "direction": "higher = stronger binding", "Residues (chain)": "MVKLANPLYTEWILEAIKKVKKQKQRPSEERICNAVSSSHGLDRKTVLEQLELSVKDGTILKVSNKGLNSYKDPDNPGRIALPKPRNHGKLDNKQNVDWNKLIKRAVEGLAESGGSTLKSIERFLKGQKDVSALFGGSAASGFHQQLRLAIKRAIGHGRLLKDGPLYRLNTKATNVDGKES"}
{"Strand": "TCTTATAA", "E-score": 0.0451}
{"Strand": "ATCTTACA", "E-score": -0.112}
{"Strand": "CCGGTGTC", "E-score": 0.0827}
{"Strand": "GGCCCCTA", "E-score": -0.123}
{"Strand": "CTCGTGTA", "E-score": -0.0773}
{"Strand": "AACTGATT", "E-score": -0.147}
{"Strand": "CGACCCAG", "E-score": -0.00206}
{"Strand": "AACTAGCT", "E-score": -0.00634}
{"Strand": "ATGGATCC", "E-score": 0.027}
{"Strand": "ACGAACGA", "E-score": -0.0909}
{"Strand": "AAGCGCAG", "E-score": 0.258}
{"Strand": "AAAGTATA", "E-score": -0.189}
{"Strand": "ACGCGTGA", "E-score": 0.258}
{"Strand": "CCTCTGCG", "E-score": -0.0197}
{"Strand": "GCTCCACA", "E-score": -0.0545}
{"Strand": "AACATTAT", "E-score": 0.0222}
{"Strand": "GACTCTGC", "E-score": -0.117}
{"Strand": "GACGATGA", "E-score": 0.0865}
{"Strand": "GTTCCACA", "E-score": 0.0139}
{"Strand": "GATTTTGA", "E-score": -0.0953}
{"Strand": "ACGTTCGA", "E-score": -0.00484}
{"Strand": "GAATCCGA", "E-score": 0.124}
{"data": "Study 4", "target": "CCND3, cyclin fold, Cln2 fusion (human)", "technique": "yeast growth competition, sequencing", "sample": "yeast", "setting": "weak parent motif", "relative to": "not given", "direction": "higher = stronger binding", "starting sequence": "CDKN1C docking peptide (human); TSACRSLFGPVDH"}
{"Substitution": "TSACRSLFGAVDH [P10A]", "normalised enrichment score": 0.127}
{"Substitution": "TSACRSAFGPVDH [L7A]", "normalised enrichment score": 0.0696}
{"Substitution": "TSACRSLAGPVDH [F8A]", "normalised enrichment score": 0.138}
{"Substitution": "TSACASLFGPVDH [R5A]", "normalised enrichment score": 0.0552}
{"Substitution": "TSACKSLLGPVDH [R5K F8L]", "normalised enrichment score": 0.0903}
{"Substitution": "TSACRSLFAPVDH [G9A]", "normalised enrichment score": 0.145}
{"Substitution": "TAACRSLFGPVDH [S2A]", "normalised enrichment score": 0.197}
{"data": "Study 5", "target": "ABI1, truncated, D143A, DHFR fusion (Arabidopsis thaliana)", "technique": "DHFR PCA, deep sequencing", "sample": "yeast", "setting": "methotrexate growth selection, single substitutions", "together with": "(+)-ABA 1.4 µM", "relative to": "wild-type fitted maximum", "direction": "higher = stronger binding", "starting sequence": "PYL1, truncated, DHFR fusion (Arabidopsis thaliana); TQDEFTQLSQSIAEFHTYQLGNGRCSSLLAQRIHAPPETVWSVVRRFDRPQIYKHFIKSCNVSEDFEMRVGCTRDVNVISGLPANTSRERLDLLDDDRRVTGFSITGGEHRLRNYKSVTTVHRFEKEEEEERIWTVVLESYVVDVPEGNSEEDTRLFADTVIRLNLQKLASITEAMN"}
{"Substitution": "D153F", "relative binding score [%]": -27.2}
{"Substitution": "D65N", "relative binding score [%]": 62.1}
{"Substitution": "N114P", "relative binding score [%]": -8.91}
{"Substitution": "Q167R", "relative binding score [%]": 74.9}
{"Substitution": "R88M", "relative binding score [%]": 27.5}
{"Substitution": "Q51S", "relative binding score [%]": 10.9}
{"Substitution": "E174Q", "relative binding score [%]": 37.8}
{"Substitution": "V136W", "relative binding score [%]": 27.6}
{"Substitution": "S26D", "relative binding score [%]": -22.3}
{"Substitution": "R45M", "relative binding score [%]": -12.7}
{"Substitution": "S104V", "relative binding score [%]": -0.931}
{"Substitution": "S59C", "relative binding score [%]": 22.2}
{"data": "Study 6", "target": "Sal-like protein 4, full length isoform A (SALL4, Homo sapiens, UniProt Q9UJQ4, residues 1-1053)", "technique": "universal PBM", "form": "double-stranded DNA, one strand shown", "sample": "in vitro", "tested at": "600 nM", "setting": "8-mer, flanks averaged, mean of replicates", "direction": "higher = stronger binding", "sequence of UniProt Q9UJQ4 (whole entry, looked up)": "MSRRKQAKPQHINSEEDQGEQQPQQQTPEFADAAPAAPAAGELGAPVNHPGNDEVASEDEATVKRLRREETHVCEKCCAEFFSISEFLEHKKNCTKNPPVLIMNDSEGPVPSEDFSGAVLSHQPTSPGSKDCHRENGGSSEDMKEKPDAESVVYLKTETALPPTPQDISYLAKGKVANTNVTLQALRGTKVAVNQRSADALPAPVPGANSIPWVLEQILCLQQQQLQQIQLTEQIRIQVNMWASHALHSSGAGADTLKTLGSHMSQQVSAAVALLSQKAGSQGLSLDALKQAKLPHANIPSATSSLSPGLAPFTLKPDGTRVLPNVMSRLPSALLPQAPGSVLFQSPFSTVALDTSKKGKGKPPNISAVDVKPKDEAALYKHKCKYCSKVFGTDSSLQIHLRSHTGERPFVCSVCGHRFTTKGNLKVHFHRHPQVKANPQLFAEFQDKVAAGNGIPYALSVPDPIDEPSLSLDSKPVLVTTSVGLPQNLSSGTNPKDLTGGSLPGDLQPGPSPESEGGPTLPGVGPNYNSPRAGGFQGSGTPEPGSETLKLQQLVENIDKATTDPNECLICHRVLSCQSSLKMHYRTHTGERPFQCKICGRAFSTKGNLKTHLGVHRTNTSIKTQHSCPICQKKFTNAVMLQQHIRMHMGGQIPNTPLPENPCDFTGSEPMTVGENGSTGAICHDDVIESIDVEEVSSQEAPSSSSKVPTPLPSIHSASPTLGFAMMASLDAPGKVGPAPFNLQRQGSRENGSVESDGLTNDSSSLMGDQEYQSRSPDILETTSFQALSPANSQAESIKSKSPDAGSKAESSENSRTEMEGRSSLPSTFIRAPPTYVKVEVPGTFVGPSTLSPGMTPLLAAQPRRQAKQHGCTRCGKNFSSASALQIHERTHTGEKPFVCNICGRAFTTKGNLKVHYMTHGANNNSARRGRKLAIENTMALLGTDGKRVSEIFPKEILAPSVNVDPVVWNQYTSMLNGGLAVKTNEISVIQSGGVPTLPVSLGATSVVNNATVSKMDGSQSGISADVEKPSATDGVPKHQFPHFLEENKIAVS"}
{"Strand": "AAAGTTCA", "E-score": 0.144}
{"Strand": "AATGCCCG", "E-score": -0.231}
{"Strand": "TATGCCCA", "E-score": -0.0248}
{"Strand": "CTCCCAAA", "E-score": -0.0285}
{"Strand": "ACCACACC", "E-score": -0.208}
{"Strand": "ACACACGA", "E-score": -0.00449}
{"Strand": "ACTCATCT", "E-score": 0.152}
{"Strand": "CTTTCTAC", "E-score": 0.0222}
{"Strand": "TAGGGGGA", "E-score": -0.178}
{"Strand": "GTGCAGAA", "E-score": 0.106}
{"Strand": "CACCTGTA", "E-score": -0.0236}
{"Strand": "GGAAGCTA", "E-score": -0.165}
{"Strand": "CCCATCCG", "E-score": -0.197}
{"Strand": "AACTTTCT", "E-score": 0.165}
{"Strand": "TGAGCGCA", "E-score": -0.183}
{"Strand": "AAGCAGTA", "E-score": 0.0345}
{"Strand": "GTAGGAGA", "E-score": -0.081}
